Published values gathered from unrelated publications.
Each line is one published result; not all experiments were run side by side. Several values in a cell are separate wells, animals, samples, runs or records. Numbers after ± are the reported error. Values after ≈ are worked out from the molar mass of the structure shown.
Organism: Escherichia coli

Structure (SMILES) | assay | system | conditions | how to read | endpoint | result
N=C(N)c1cccc(OCc2cccc(COc3cccc(C(=N)N)c3)c2)c1 | checkerboard | BW25113 | concentration not given, lowest-FICI combination, together with: rifampicin |  | MIC of compound in combination | 50 µg/mL
CC(=O)Oc1ccc(-c2c(C(N)=O)c(N)n(N)c(=O)c2C#N)cc1 | time-kill |  | 1 x MIC, 120 min, 2 h |  | viable count | 0 CFU
CO/N=C(\C(=O)N[C@@H]1C(=O)N2C(C(=O)O)=C(COC(C)=O)CS[C@H]12)c1csc(N)n1 |  | CGMCC 1.9 | concentration not given, 18 h, 37 °C |  | inhibition zone diameter | 12 mm
N=C(N)c1ccc(OCc2ccc(-c3ccccc3)cc2COc2ccc(C(=N)N)cc2)cc1 |  | ATCC 25922 | concentration not given, together with: rifampicin |  | MIC in combination | 3.13 µg/mL
OC[C@H]1O[C@@H]2O[C@H]3[C@H](O)[C@@H](O)[C@@H](O[C@H]4[C@H](O)[C@@H](O)[C@@H](O[C@H]5[C@H](O)[C@@H](O)[C@@H](O[C@H]6[C@H](O)[C@@H](O)[C@@H](O[C@H]7[C@H](O)[C@@H](O)[C@@H](O[C@H]8[C@H](O)[C@@H](O)[C@@H](O[C@H]1[C@H](O)[C@H]2O)O[C@@H]8CO)O[C@@H]7CO)O[C@@H]6CO)O[C@@H]5CO)O[C@@H]4CO)O[C@@H]3CO | LuxR reporter, antagonist | DH5α sensor strain | 4 µM, together with: OHHL 200 nM |  | inhibition | -2 ± 6%
C[C@@H](O)[C@H](N)C(=O)O | chemotaxis pathway activity, FRET | MG1655 |  |  | EC50 | > 1000 µM
N=C(N)c1ccc(OCCCCCCCCCOc2ccc(C(=N)N)cc2)cc1 |  | BW25113 | concentration not given, lowest-FICI combination, together with: erythromycin |  | MIC in combination | 3.13 µg/mL
N[C@@H](CO)C(=O)O | chemotaxis pathway, FRET | MG1655 |  |  | EC50 | 0.9 µM
CN(C)[C@@H]1C(O)=C(C(N)=O)C(=O)[C@@]2(O)C(O)=C3C(=O)c4c(O)cccc4[C@@](C)(O)[C@H]3C[C@@H]12 |  | ATCC 25922 |  | relative to: 5% CO2 over ambient air | MIC fold shift | 0.5
CC1(C)S[C@@H]2[C@H](NC(=O)[C@H](N)c3ccccc3)C(=O)N2[C@H]1C(=O)O |  | ATCC 10546 |  |  | MBC | 2 µg/mL
COC(=O)[C@H]1[C@H]2C[C@@H]3c4[nH]c5cc(OC)ccc5c4CCN3C[C@H]2C[C@@H](OC(=O)c2cc(OC)c(OC)c(OC)c2)[C@@H]1OC | tetracycline MIC, checkerboard | tetracycline-resistant (pBR322) | 128 µM, together with: tetracycline | relative to: MIC alone over combination | fold enhancement | 4 fold
CC1=N/C(=C\c2cc(F)c(O)c(F)c2)C(=O)N1C | cytoplasmic accumulation, flow cytometry |  |  |  | saturating concentration | 300 µM
NCC(=O)O | chemotaxis pathway, FRET | MG1655 |  |  | EC50 | 87.2 µM
Cc1c(CN(C)C(=O)/C=C/c2cnc3c(c2)CC(NC(=O)OC(C)(C)C)C(=O)N3)oc2ccccc12 (centres unmarked) | broth microdilution | AR-0058 |  |  | MIC | > 32 µg/mL
N=C(N)c1ccc(OCc2cc(COc3ccc(C(=N)N)cc3)cc(-c3ccccc3)c2)cc1 | checkerboard | W3110 | unit not given, together with: rifampicin | lower = stronger synergy | FICI | ≤ 0.07
CO[C@H]1/C=C/O[C@@]2(C)Oc3c(C)c(O)c4c(c3C2=O)C(=O)C(N2CCN(c3ccc([N+](=O)[O-])cc3Cl)CC2)=C(NC(=O)/C(C)=C/C=C/[C@H](C)[C@H](O)[C@@H](C)[C@@H](O)[C@@H](C)[C@H](OC(C)=O)[C@H]1C)C4=O |  | ATCC 25922 |  |  | MIC | 20 µM
COc1cc(C=O)ccc1OC1=C(Cl)C(=O)c2ccccc2C1=O |  | MTCC 405 | 10 µg/mL |  | zone of inhibition | 21 mm
OB(O)c1csc2ccccc12 |  |  | 100 µM, 10 h | relative to: untreated | growth | 114% and 93.1% and 98% and 105% and 91.4%
N#Cc1c(-c2ccc(OCc3ccccc3)cc2)c(C(N)=O)c(N)n(N)c1=O | time-kill |  | 1 x MIC, 180 min, 3 h |  | viable count | 0 CFU

Structure (SMILES) | assay | system | conditions | how to read | endpoint | result
COC[C@H]1O[C@@H]2O[C@H]3[C@H](OC)[C@@H](OC)[C@@H](O[C@H]4[C@H](OC)[C@@H](OC)[C@@H](O[C@H]5[C@H](OC)[C@@H](OC)[C@@H](O[C@H]6[C@H](OC)[C@@H](OC)[C@@H](O[C@H]7[C@H](OC)[C@@H](OC)[C@@H](O[C@H]8[C@H](OC)[C@@H](OC)[C@@H](O[C@H]1[C@H](OC)[C@H]2OC)O[C@@H]8COC)O[C@@H]7COC)O[C@@H]6COC)O[C@@H]5COC)O[C@@H]4COC)O[C@@H]3COC | LuxR reporter, agonist | DH5α sensor strain | 40 µM |  | bioluminescence | 889 ± 20 RLU
O=[N+]([O-])c1ccc(O)c2ncccc12 | bacterial growth, OD600 | UAMS-1 |  |  | IC50 | 1.93 ± 0.15 µM
N=C(N)c1ccc(OCc2ccc3ccc(COc4ccc(C(=N)N)cc4)cc3c2)cc1 |  | BW25113 | concentration not given, lowest-FICI combination, together with: erythromycin |  | MIC in combination | 25 µg/mL
C[C@@H](O)[C@H]1C(=O)N2C(C(=O)O)=C(SCCN=CN)C[C@H]12 |  | 2904, female ICR mice, peritonitis, spleen | dose not given, 168 h |  | bacterial load | 3.73 log CFU and 3.87 log CFU and 3.86 log CFU and 3.96 log CFU and 3.82 log CFU and 3.97 log CFU
CC1(C)S[C@@H]2[C@H](NC(=O)[C@H](N)c3ccccc3)C(=O)N2[C@H]1C(=O)O |  | CGMCC 1.9 | concentration not given, 18 h, 37 °C |  | inhibition zone diameter | 9 mm
COC[C@H]1O[C@@H]2O[C@@H]3[C@@H](OC)[C@@H](OC)[C@@H](O[C@@H]4[C@@H](OC)[C@@H](OC)[C@@H](O[C@@H]5[C@@H](OC)[C@@H](OC)[C@@H](O[C@@H]6[C@@H](OC)[C@@H](OC)[C@@H](O[C@@H]7[C@@H](OC)[C@@H](OC)[C@@H](O[C@@H]1[C@@H](OC)[C@H]2OC)O[C@@H]7COC)O[C@@H]6COC)O[C@@H]5COC)O[C@@H]4COC)O[C@@H]3COC | LuxR reporter, agonist | DH5α sensor strain | 20 µM |  | bioluminescence | 852 ± 23 RLU
O=C(N[C@H](CO)[C@H](O)c1ccc([N+](=O)[O-])cc1)C(Cl)Cl |  | ATCC 25922 |  | relative to: 5% CO2 over ambient air | MIC fold shift | 1
N=C(N)c1ccc(OCCCCCCCCCCCOc2ccc(C(=N)N)cc2)cc1 |  | BW25113 | concentration not given, lowest-FICI combination, together with: erythromycin |  | MIC in combination | 6.25 µg/mL
N=C(N)c1ccc(/N=N/Nc2ccc(C(=N)N)cc2)cc1 | bacterial growth, inhibitor, OD600 | E1 | overnight |  | MIC90 | 377 ± 45 µM (≈ 106 µg/mL)
NC(=O)C[C@H](N)C(=O)O | chemotaxis pathway, FRET | MG1655 |  |  | EC50 | 15.6 µM
NC[C@H]1O[C@H](O[C@H]2[C@H](O)[C@@H](O[C@H]3O[C@H](CO)[C@@H](O)[C@H](N)[C@H]3O)[C@H](N)C[C@@H]2N)[C@H](O)[C@@H](O)[C@@H]1O |  |  | concentration not given, 0.2 mg/mL |  | growth inhibition | 82%
CC(C)Oc1c(NC(=O)c2ccc(NC(=O)[C@H](CC(N)=O)NC(=O)c3ccc(NC(=O)c4ccc(C#N)cc4)cc3)cc2)ccc(C(=O)Nc2ccc(C(=O)O)cc2)c1O |  | ATCC 25922, neutropenic mouse thigh infection | iv, 40 mg/kg/day |  | bacterial load reduction below stasis | 2.87 log10 CFU/g
CC(=O)O[C@@H]1CC(=O)O[C@H](C)C/C=C/C=C/[C@H](O[C@H]2CC[C@H](N(C)C)[C@@H](C)O2)[C@H](C)C[C@H](CC=O)[C@H](O[C@@H]2O[C@H](C)[C@@H](O[C@H]3C[C@@](C)(O)[C@@H](O)[C@H](C)O3)[C@H](N(C)C)[C@H]2O)C1 |  | ATCC 25922 |  |  | MIC | 640 µM
Nc1ccc2c(c1)B(O)OC2 |  | ATCC 25922 | 4xMIC, 1 h |  | post-antibiotic effect | 0.69 ± 0.06 h
C#CCCCC(=O)NCC | LuxR reporter, antagonist | DH5α sensor strain | 20 µM, together with: OHHL 200 nM |  | inhibition | 15%
Cc1ccc(C(C)C)c(OC2=C(Cl)C(=O)c3ccccc3C2=O)c1 |  | MTCC 405 | 10 µg/mL |  | zone of inhibition | 20 mm
[Cl][Fe]([Cl])[Cl] |  |  | 24 h, 37 °C |  | MBC | > 1600 µM
N=C(N)c1cccc(OCCCCCOc2cccc(C(=N)N)c2)c1 |  | BW25113 | concentration not given, lowest-FICI combination, together with: erythromycin |  | MIC in combination | 100 µg/mL
CN(C)[C@@H]1C(O)=C(C(N)=O)C(=O)[C@@]2(O)C(O)=C3C(=O)c4c(O)cccc4[C@@](C)(O)[C@H]3C[C@@H]12 |  | CGMCC 1.9 | concentration not given, 18 h, 37 °C |  | inhibition zone diameter | 0 mm

Excerpt of the above:
Structure (SMILES) | assay | system | conditions | how to read | endpoint | result
CC1(C)S[C@@H]2[C@H](NC(=O)[C@H](N)c3ccccc3)C(=O)N2[C@H]1C(=O)O |  | ATCC 10546 |  |  | MBC | 2 µg/mL
COC[C@H]1O[C@@H]2O[C@@H]3[C@@H](OC)[C@@H](OC)[C@@H](O[C@@H]4[C@@H](OC)[C@@H](OC)[C@@H](O[C@@H]5[C@@H](OC)[C@@H](OC)[C@@H](O[C@@H]6[C@@H](OC)[C@@H](OC)[C@@H](O[C@@H]7[C@@H](OC)[C@@H](OC)[C@@H](O[C@@H]1[C@@H](OC)[C@H]2OC)O[C@@H]7COC)O[C@@H]6COC)O[C@@H]5COC)O[C@@H]4COC)O[C@@H]3COC | LuxR reporter, agonist | DH5α sensor strain | 20 µM |  | bioluminescence | 852 ± 23 RLU
N=C(N)c1cccc(OCc2cccc(COc3cccc(C(=N)N)c3)c2)c1 | checkerboard | BW25113 | concentration not given, lowest-FICI combination, together with: rifampicin |  | MIC of compound in combination | 50 µg/mL
OC[C@H]1O[C@@H]2O[C@H]3[C@H](O)[C@@H](O)[C@@H](O[C@H]4[C@H](O)[C@@H](O)[C@@H](O[C@H]5[C@H](O)[C@@H](O)[C@@H](O[C@H]6[C@H](O)[C@@H](O)[C@@H](O[C@H]7[C@H](O)[C@@H](O)[C@@H](O[C@H]8[C@H](O)[C@@H](O)[C@@H](O[C@H]1[C@H](O)[C@H]2O)O[C@@H]8CO)O[C@@H]7CO)O[C@@H]6CO)O[C@@H]5CO)O[C@@H]4CO)O[C@@H]3CO | LuxR reporter, antagonist | DH5α sensor strain | 4 µM, together with: OHHL 200 nM |  | inhibition | -2 ± 6%
C[C@@H](O)[C@H]1C(=O)N2C(C(=O)O)=C(SCCN=CN)C[C@H]12 |  | 2904, female ICR mice, peritonitis, spleen | dose not given, 168 h |  | bacterial load | 3.73 log CFU and 3.87 log CFU and 3.86 log CFU and 3.96 log CFU and 3.82 log CFU and 3.97 log CFU
CN(C)[C@@H]1C(O)=C(C(N)=O)C(=O)[C@@]2(O)C(O)=C3C(=O)c4c(O)cccc4[C@@](C)(O)[C@H]3C[C@@H]12 |  | ATCC 25922 |  | relative to: 5% CO2 over ambient air | MIC fold shift | 0.5
